Assay results pooled from the literature.
Lines come from different studies, so protocols differ. Numbers after ± are the reported error.
Target: Tyrosine-protein kinase JAK3 (JAK3, Homo sapiens, UniProt P52333)
One construct used (P52333 1-1124): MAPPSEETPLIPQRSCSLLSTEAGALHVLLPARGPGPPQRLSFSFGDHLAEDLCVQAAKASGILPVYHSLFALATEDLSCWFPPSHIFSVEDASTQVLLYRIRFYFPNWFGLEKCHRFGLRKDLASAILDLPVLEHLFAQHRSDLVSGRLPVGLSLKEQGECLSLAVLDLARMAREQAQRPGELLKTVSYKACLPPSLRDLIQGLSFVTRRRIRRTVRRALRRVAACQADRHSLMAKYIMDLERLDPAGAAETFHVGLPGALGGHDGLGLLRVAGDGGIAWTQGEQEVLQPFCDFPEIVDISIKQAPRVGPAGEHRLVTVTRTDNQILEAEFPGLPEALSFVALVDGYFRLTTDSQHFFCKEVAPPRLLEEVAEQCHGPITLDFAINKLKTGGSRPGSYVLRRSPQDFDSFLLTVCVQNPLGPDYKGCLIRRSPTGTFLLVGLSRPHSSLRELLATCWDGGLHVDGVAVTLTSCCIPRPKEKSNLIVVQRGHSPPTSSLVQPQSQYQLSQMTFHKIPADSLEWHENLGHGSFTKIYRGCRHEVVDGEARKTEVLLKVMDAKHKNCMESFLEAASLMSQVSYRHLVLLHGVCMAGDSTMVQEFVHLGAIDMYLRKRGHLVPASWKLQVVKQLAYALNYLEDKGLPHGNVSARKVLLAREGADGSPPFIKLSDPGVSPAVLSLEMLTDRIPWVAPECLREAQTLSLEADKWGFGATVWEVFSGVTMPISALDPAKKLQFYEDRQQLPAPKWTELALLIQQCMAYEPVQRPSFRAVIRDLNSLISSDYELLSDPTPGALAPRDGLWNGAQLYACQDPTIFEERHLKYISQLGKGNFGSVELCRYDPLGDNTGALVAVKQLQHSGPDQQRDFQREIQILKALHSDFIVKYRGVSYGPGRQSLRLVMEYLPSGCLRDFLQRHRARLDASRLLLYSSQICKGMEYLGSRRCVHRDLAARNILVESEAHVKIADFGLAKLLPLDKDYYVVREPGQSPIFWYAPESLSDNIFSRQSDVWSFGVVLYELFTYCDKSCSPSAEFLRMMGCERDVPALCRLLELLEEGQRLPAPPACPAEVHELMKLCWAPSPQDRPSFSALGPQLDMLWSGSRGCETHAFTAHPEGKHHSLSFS

SMILES	assay	conditions	how to read	quantity	value
COc1cc(F)ccc1-c1ncnc(Nc2cccc(C[S@](C)(=N)=O)c2)n1	kinase activity	10 µM, with: 10 µM ATP	–	remaining activity	107%
CNc1ncc2c(/C=C/C(=O)N3CCC(OC)CC3)nn(Cc3cccc(C(F)(F)F)c3)c2n1	kinase activity, inhibitor	1 µM	baseline: untreated control	remaining activity	93%
[2H]c1cc(C)c(NC(=O)c2cnc(Nc3cc(N4CCCCC4)nc(C)n3)s2)c(Cl)c1	–	0.01 µM	–	inhibition	< 30%
O=C(NC1CCC1)c1ccc2nc(-c3cccc(NS(=O)(=O)NCCN4CCCCC4)c3)cn2c1	enzyme activity	10 µM	–	remaining activity	81%
C=CC(=O)N1CCC([C@@H]2CCNc3c(C(N)=O)c(-c4ccc(Oc5ccccc5)cc4)nn32)CC1	kinase activity, inhibitor, HotSpot radiometric	100 nM, with: ATP 10 µM	–	remaining activity	97.1 ± 4%
Cc1cc(Nc2cc(N3CCN(C)CC3)nc(Sc3ccc(NC(=O)C4CC4)cc3)n2)[nH]n1	kinase activity, KinaseProfiler	0.03 µM, species human	baseline: control	remaining activity	95%
C=CC(=O)N1CCC[C@@H](n2nc(-c3ccc(Oc4ccccc4)cc3)c3c(N)ncnc32)C1	kinase activity, inhibitor, HotSpot radiometric	100 nM, with: ATP 10 µM	–	remaining activity	7.8 ± 0.1%
C=CC(=O)N1CCC(COCC(=O)N2CCN(c3nc(-c4cnc(N)nc4C(F)F)nc(N4CCOC[C@@H]4C)n3)CC2)CC1	KINOMEscan	1 µM	–	remaining binding	100%
